Published values gathered from unrelated publications.
Lines come from different studies, so protocols differ. ± marks the error that the study gave.
Target: Alpha-glucosidase MAL12 (MAL12, Saccharomyces cerevisiae S288c, UniProt P53341)
Chain of UniProt P53341 (whole entry, looked up): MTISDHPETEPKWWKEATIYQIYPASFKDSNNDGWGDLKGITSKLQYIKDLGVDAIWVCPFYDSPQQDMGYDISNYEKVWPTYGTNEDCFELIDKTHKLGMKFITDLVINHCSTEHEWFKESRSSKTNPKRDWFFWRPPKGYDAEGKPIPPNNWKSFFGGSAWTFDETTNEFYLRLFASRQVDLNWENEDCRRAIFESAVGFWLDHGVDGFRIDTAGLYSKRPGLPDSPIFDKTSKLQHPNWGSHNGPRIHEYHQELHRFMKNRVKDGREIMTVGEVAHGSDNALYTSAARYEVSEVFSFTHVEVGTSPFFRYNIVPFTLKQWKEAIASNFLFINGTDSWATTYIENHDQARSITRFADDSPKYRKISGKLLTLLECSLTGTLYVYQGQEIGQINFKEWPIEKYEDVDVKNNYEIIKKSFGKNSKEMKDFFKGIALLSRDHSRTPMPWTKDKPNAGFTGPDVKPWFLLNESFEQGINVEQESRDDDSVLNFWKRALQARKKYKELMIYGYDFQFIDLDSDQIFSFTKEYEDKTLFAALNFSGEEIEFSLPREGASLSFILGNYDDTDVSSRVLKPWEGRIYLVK

With Oc1cc2c(cc1O)C(c1ccc3[nH]ccc3c1)NCC2 (stereo not shown) the inhibition was 66.3 ± 1.48% (enzyme activity, inhibitor; 100 µM, DMSO solvent, added: pNPG substrate).
CCOC(=S)NCc1ccc(O[C@@H]2O[C@@H](C)[C@H](O)[C@@H](O)[C@H]2O)cc1 has an inhibition of 30 ± 4.75% (inhibitor; 100 µg/mL, 0.4167 h, added: p-nitrophenyl glucoside substrate).
With COc1cc(Cn2ccnc2)ccc1O the inhibition was less than 0% (inhibitor; 25 µM).
COc1cc([C@H](O)[C@H](O)CO)ccc1O gave an inhibition of 38.5 ± 3.6% (inhibitor; 100 µg/mL, 0.4167 h, added: p-nitrophenyl glucoside substrate).
Oc1cccc(C2NCCc3cc(O)c(O)cc32)c1 (stereo not shown) gave an inhibition of 51.6 ± 3.07% (enzyme activity, inhibitor; 100 µM, DMSO solvent, added: pNPG substrate).
The inhibition of Oc1ccccc1Cn1ccnc1 is reported as less than 0% (inhibitor; 25 µM).
CC(C)(COC(=O)c1ccccc1)CC1=C(O)C(=O)c2ccccc2C1=O — result for inhibition: “inactive” (enzyme activity; 50 µM).
With COc1ccc(-c2coc3c(Cn4cnc5ccccc54)c(O)ccc3c2=O)cc1OC the inhibition was 18.8% (inhibitor; 25 µM).
NC(=O)Cc1ccc(O)c(Cc2ccc(O)cc2)c1 gave an inhibition of greater than 50% (inhibitor; 100 µg/mL, 0.4167 h, added: p-nitrophenyl glucoside substrate).
The inhibition of OCc1ccc(C2NCCc3cc(O)c(O)cc32)o1 (stereo not shown) is reported as 62.3 ± 1.14% (enzyme activity, inhibitor; 100 µM, DMSO solvent, added: pNPG substrate).

For quick reference, copied from above:
With COc1ccc(-c2coc3c(Cn4cnc5ccccc54)c(O)ccc3c2=O)cc1OC the inhibition was 18.8% (inhibitor; 25 µM).
